Measured values collected from several papers.
Compare with care: the assays were run in different laboratories. ± gives the spread as reported.
dncV: dncV (Vibrio cholerae, UniProt Q9KVG7)

| SMILES | tested on | assay | test system | setting | scale | quantity | result |
| --- | --- | --- | --- | --- | --- | --- | --- |
| Cc1ccc(NC(=O)C2(c3ccc4c(c3)OC(F)(F)O4)CC2)cc1-c1cccc(C(=O)O)c1 | Cystic fibrosis transmembrane conductance regulator (CFTR, Homo sapiens, UniProt P13569, del508-508) | chloride conductance, corrector | CFBE41o- F508del | – | reference: 3 µM VX-809 | Emax | 120% |
| C[C@@H](NC(=O)[C@@H](CCC(N)=O)NC(=O)[C@@H](C)NC(=O)[C@@H](CCCCN)NC(=O)[C@@H](CCC(N)=O)NC(=O)[C@@H](C)NC(=O)[C@@H](CCCCN)NC(=O)[C@@H](CCC(N)=O)NC(=O)[C@@H](C)NC(=O)[C@@H](CCC(N)=O)NC(=O)[C@@H](CCCCN)NC(=O)[C@@H](C)NC(=O)[C@@H](CCC(N)=O)NC(=O)[C@@H](CCCCN)NC(=O)[C@@H](C)NC(=O)[C@@H](CCC(N)=O)NC(=O)[C@@H](C)NC(=O)[C@@H](CCCCN)NC(=O)[C@@H](CCC(N)=O)NC(=O)[C@@H](C)NC(=O)[C@@H](CCCCN)NC(=O)[C@@H](CO)NC(=O)[C@@H](Cc1ccc(O)cc1)NC(=O)CNC(=O)CNC(=O)CN)C(=O)N[C@H](CCCCN)C(=O)N[C@H](CCC(N)=O)C(=O)N[C@H](C)C(=O)N[C@H](CCCCN)C(=O)N[C@H](CCC(N)=O)C(=O)O | – | binding, SPR two-state model | rVλ6Wil fibrils | 300 nM | – | Rmax | 63.4 RU |
| Nc1nc2c([C@@H]3O[C@@H]4COP(=O)(O)O[C@H]5[C@@H](O)[C@H](c6scc7c(=O)[nH]c(N)nc67)O[C@@H]5COP(=O)(O)O[C@H]4[C@H]3O)scc2c(=O)[nH]1 | dncV | substrate, HPLC | – | 500 µM, 37 °C | – | cyclization rate constant k2 | 0.000232 ± 5e-06 s⁻¹ |
| CCN(Cc1ccccc1)C(=O)CCc1nc(CN2CCN(C(=O)Cc3ccc(OC)c(OC)c3)CC2)no1 | Potassium voltage-gated channel subfamily KQT member 4 (KCNQ4, Homo sapiens, UniProt P56696) | potassium current, opener, whole-cell patch clamp | CHO stable | 10 µM | reference: control | current fold increase | 1.3 ± 0.05 |
| CC(C)[C@H](N)C(=O)N[C@@H](Cc1ccc(O)cc1)C(=O)N[C@@H](CCCCN)C(=O)N[C@H](C(=O)N[C@@H](CCCCN)C(=O)N[C@H](C(=O)N[C@@H](CCCCN)C(=O)N[C@H](C(=O)N[C@@H](CCCCN)C(=O)N[C@H](C(=O)N[C@@H](CCCCN)C(=O)N[C@H](C(=O)N[C@@H](CCCCN)C(=O)N[C@H](C(=O)N[C@@H](CCCCN)C(=O)N[C@H](C(=O)N[C@@H](CCCCN)C(=O)N[C@H](C(=O)O)[C@@H](C)O)C(C)C)[C@@H](C)O)C(C)C)[C@@H](C)O)C(C)C)[C@@H](C)O)C(C)C | – | binding, SPR Langmuir fit | rVλ6Wil fibrils | 300 nM, pH 7.4 | – | Rmax | 63 RU |
| Nc1nc2c([C@@H]3O[C@H](COP(=O)(O)OP(=O)(O)OP(=O)(O)O)[C@@H](O)[C@H]3O)snc2c(=O)[nH]1 | dncV | substrate, HPLC | – | 500 µM, 37 °C | – | intermediate degradation rate k3 | 0.00013 ± 1e-05 s⁻¹ |
| CC(=O)N[C@@H](CCC(=O)O)C(=O)N[C@@H](CCC(N)=O)C(=O)N[C@H](C(=O)N[C@@H](CCC(=O)O)C(=O)N[C@@H](CC(C)C)C(=O)N[C@@H](CCC(=O)O)C(=O)N[C@@H](Cc1ccccc1)C(=O)N[C@@H](CC(=O)O)C(=O)O)C(C)C | Beta sliding clamp (Escherichia coli, UniProt P0A988) | HDX-MS | – | 50 µM, 10 s, pH pD 7.4, 37 °C, target 5 µM | – | deuterium uptake | 84 ± 2 Da |
| CC(C)(C)c1cc(C(C)(C)C)c(-n2cc(-c3cnc4ccccc4c3O)nn2)cc1O | Cystic fibrosis transmembrane conductance regulator (CFTR, Homo sapiens, UniProt P13569, G551D) | short-circuit current, potentiator | CFBE41o- G551D | together with: forskolin 10 µM | – | EC50 | inactive |
| NCCCC[C@H](NC(=O)CNC(=O)CNC(=O)[C@H](CCCCN)NC(=O)CNC(=O)CNC(=O)CNC(=O)[C@H](CCCCN)NC(=O)CNC(=O)CNC(=O)[C@H](CCCCN)NC(=O)CNC(=O)CNC(=O)CNC(=O)[C@H](CCCCN)NC(=O)CNC(=O)CNC(=O)[C@H](CCCCN)NC(=O)CNC(=O)CNC(=O)CNC(=O)[C@H](CCCCN)NC(=O)CNC(=O)CNC(=O)[C@H](CCCCN)NC(=O)[C@H](CO)NC(=O)[C@H](Cc1ccc(O)cc1)NC(=O)CNC(=O)CNC(=O)CN)C(=O)NCC(=O)O | – | binding, SPR Langmuir fit | rVλ6Wil fibrils | 300 nM, pH 7.4 | – | Rmax | 18.9 RU |
| CCCCCn1cc(C(=O)c2cccc3ccccc23)c2ccccc21 | Cannabinoid receptor 1 (CNR1, Homo sapiens, UniProt P21554, L193I) | Gαi1 engagement, agonist, BRET | – | – | reference: reference agonist at wild-type CB1 | Emax | 91.8 ± 2.1% |
| C[C@H](NC(=O)[C@H](CCC(N)=O)NC(=O)[C@H](CCCCN)NC(=O)[C@H](C)NC(=O)[C@@H]1CCCN1C(=O)[C@H](C)NC(=O)[C@H](CCCCN)NC(=O)[C@H](CCC(N)=O)NC(=O)[C@H](C)NC(=O)[C@H](CCCCN)NC(=O)[C@H](CCC(N)=O)NC(=O)[C@@H]1CCCN1C(=O)[C@H](CCC(N)=O)NC(=O)[C@H](CCCCN)NC(=O)[C@H](C)NC(=O)[C@H](CCC(N)=O)NC(=O)[C@H](CCCCN)NC(=O)[C@H](C)NC(=O)[C@@H]1CCCN1C(=O)[C@H](C)NC(=O)[C@H](CCCCN)NC(=O)[C@H](CCC(N)=O)NC(=O)[C@H](C)NC(=O)[C@H](CCCCN)NC(=O)[C@H](CO)NC(=O)[C@H](Cc1ccc(O)cc1)NC(=O)CNC(=O)CNC(=O)CN)C(=O)N[C@@H](CCCCN)C(=O)N[C@@H](CCC(N)=O)C(=O)O | – | binding, SPR Langmuir fit | rVλ6Wil fibrils | 300 nM, pH 7.4 | – | Rmax | 17.6 RU |
| CCCCCn1cc(C(=O)c2ccc3c(c2)CC(C)(C)C3)c2ccccc21 | Cannabinoid receptor 1 (CNR1, Homo sapiens, UniProt P21554, I267L/L193I/L359V) | Gαi1 engagement, agonist, BRET | – | CB1 triple mutant | reference: wild type receptor | Emax increase | ~35% |
| Nc1nc2c([C@@H]3O[C@@H]4COP(=O)(O)O[C@H]5[C@@H](O)[C@H](c6snc7c(=O)[nH]c(N)nc67)O[C@@H]5COP(=O)(O)O[C@H]4[C@H]3O)snc2c(=O)[nH]1 | dncV | first phosphodiester formation, substrate, HPLC | – | 500 µM, 37 °C | – | rate constant k1 | 1.26 ± 0.07 M⁻¹ s⁻¹ |
